# Results from different studies.
# Compare with care: the assays were run in different laboratories.
# Spike glycoprotein: Spike glycoprotein (Severe acute respiratory syndrome coronavirus 2, UniProt P0DTC2)
# rep main protease: Replicase polyprotein 1ab, main protease (rep, Severe acute respiratory syndrome coronavirus 2, UniProt P0DTD1)
SMILES,target or system,test,test system,conditions,how to read,measurement,value
CCc1c2c(nc3ccc(OC(=O)N4CCC(N5CCCCC5)CC4)cc13)-c1cc3c(c(=O)n1C2)COC(=O)[C@]3(O)CC,Spike glycoprotein,"binding, BLI",,,,kon,402 M⁻¹ s⁻¹
CCOC(=O)[C@H](CCc1ccccc1)N[C@H]1CS[C@H](c2cccs2)CN(CC(=O)O)C1=O,rep main protease,"viral replication, mKate2 reporter",SARS-CoV-2,20 µM,,inhibition,0.0733%
Cc1cc(C(=O)N2CCC3(CC2)CN(C(=O)C[C@@H]2CC[C@H](O)C2)Cc2ccccc2O3)n[nH]1,rep main protease,"enzyme activity, inhibitor",,"5 µM, mean of runs",,inhibition,11.2%
CC(C)[C@H](N)C(=O)N1CCC[C@H]1B(O)O.CS(=O)(=O)O,rep main protease,"reporter gene (Gaussia luciferase), inhibitor",,20 µM,,inhibition,0.104%
O=C(Cn1ccnn1)NC[C@H](NC(=O)c1cncc2ccccc12)c1ccc2ccccc2c1,rep main protease,"enzyme activity, inhibitor",,"5 µM, mean of runs",,inhibition,11.6%
CC[C@H](C)[C@H](NC(=O)[C@H](CC(C)C)NC(=O)[C@H](Cc1c[nH]c2ccccc12)NC(=O)[C@H](CCC(N)=O)NC(=O)[C@@H](NC(=O)[C@H](Cc1ccccc1)NC(=O)[C@H](C)NC(=O)[C@H](CCCCNC(=O)COCCOCCNC(=O)COCCOCCNC(=O)CC[C@H](NC(=O)CCCCCCCCCCCCCCCCCCC(=O)O)C(=O)O)NC(=O)[C@H](CCC(N)=O)NC(=O)[C@H](C)NC(=O)[C@@H](NC(=O)[C@H](CCCCN)NC(=O)[C@H](CC(=O)O)NC(=O)[C@H](CC(C)C)NC(=O)C(C)(C)NC(=O)[C@@H](NC(=O)[C@H](CO)NC(=O)[C@H](Cc1ccc(O)cc1)NC(=O)[C@H](CC(=O)O)NC(=O)[C@H](CO)NC(=O)[C@@H](NC(=O)[C@H](Cc1ccccc1)NC(=O)[C@@H](NC(=O)CNC(=O)[C@H](CCC(=O)O)NC(=O)C(C)(C)NC(=O)[C@@H](N)Cc1ccc(O)cc1)[C@@H](C)O)[C@@H](C)O)[C@@H](C)CC)[C@@H](C)CC)C(C)C)C(=O)N[C@@H](C)C(=O)NCC(=O)NCC(=O)N1CCC[C@H]1C(=O)N[C@@H](CO)C(=O)N[C@@H](CO)C(=O)NCC(=O)N[C@@H](C)C(=O)N1CCC[C@H]1C(=O)N1CCC[C@H]1C(=O)N1CCC[C@H]1C(=O)N[C@@H](CO)C(N)=O,,measured: treatment-emergent decreased appetite,healthy subjects,"1.5 mg, multiple ascending dose",,subjects with adverse event,16.7%
Cn1cnc(Cn2c(=O)[nH]/c(=N\c3cc4cn(C)nc4cc3Cl)n(Cc3cc(F)c(F)cc3F)c2=O)n1,,,"human, severe renal impairment","oral, 375 mg, vessel puncture site haemorrhage TEAE, Moderate severity",,patients with adverse event,0%
CNC(=O)[C@@H](NC(=O)[C@H](CC(C)C)[C@H](O)C(=O)NO)C(C)(C)C,Daboia russelii venom proteases (SVMP),"protease activity, inhibitor",AP population,"100 µM, added: azocasein substrate",baseline: venom alone,remaining activity,0%
CC1=NN(c2ccccc2)C(=O)C1,rep main protease,"reporter gene (mKate2), inhibitor",,20 µM,,inhibition,-0.204%
O=C(NC[C@@H]1CC2(CCC2)CN1C(=O)c1ccc(F)c(O)c1)c1cncc2ccccc12,rep main protease,"enzyme activity, inhibitor",,"5 µM, run 2",,inhibition,27.4%
C[C@@H]1O[C@@H](O[C@@H]2[C@@H](O)[C@H](OCCc3ccc(O)c(O)c3)O[C@H](CO)[C@H]2OC(=O)/C=C/c2ccc(O)c(O)c2)[C@H](O)[C@H](O)[C@H]1O,Spike glycoprotein,"binding, BLI",,,,kon,113 M⁻¹ s⁻¹
CC[C@H](C)[C@H](NC(=O)[C@H](Cc1c[nH]cn1)NC(=O)[C@H](CO)NC(=O)CNC(=O)[C@H](CCC(=O)O)NC(=O)[C@H](CCSC)NC(=O)[C@@H](NC(=O)[C@H](Cc1c[nH]cn1)NC(=O)[C@H](CO)NC(=O)[C@H](CCSC)NC(=O)[C@H](C)NC(=O)[C@H](CC(N)=O)NC(C)=O)C(C)C)C(=O)N[C@@H](CC(N)=O)C(=O)N[C@@H](Cc1c[nH]c2ccccc12)C(=O)N[C@@H](CC(=O)O)C(=O)N[C@@H](C)C(N)=O,"Polyprotein P1234, nsP2 protease domain (Chikungunya virus, UniProt Q8JUX6)","binding, phage display",,,direction not given,enrichment score,136
Nc1ncnc2c([C@@H]3N[C@H](CO)[C@@H](O)[C@H]3O)c[nH]c12,Marburg virus,surface glycoprotein expression,"HeLa, Musoke","50 µM, 1 h",,inhibition,91.1%
Cl.NCCc1ccc(S(=O)(=O)F)cc1,rep main protease,"reporter gene (Gaussia luciferase), inhibitor",,20 µM,,inhibition,3.07%
Cc1nc(N)c2cnn(C3CCN(Cc4ccc(S(=O)(=O)F)cc4)CC3)c2n1,"Calmodulin-sensitive adenylate cyclase (cya, Bacillus anthracis, UniProt P40136)",,,,,kinact,0.000867 s⁻¹
O=C(c1cccc(CF)c1)N1CCCCC[C@@H](Nc2nc(-c3cccnc3)nc3c2CCC3)C1,rep main protease,"enzyme activity, inhibitor",,"5 µM, run 2",,inhibition,12.4%
COc1cc2c3cc1Oc1c(OC)c(OC)cc4c1[C@@H](Cc1ccc(O)c(c1)Oc1ccc(cc1)C[C@@H]3N(C)CC2)N(C)CC4,Spike glycoprotein,"binding, BLI",,,,koff,0.01 s⁻¹
